Assay results pooled from the literature.
Lines come from different studies, so protocols differ.
PFF0160c E182D: Dihydroorotate dehydrogenase (quinone), mitochondrial (PFF0160c, Plasmodium falciparum, UniProt Q08210, E182D)
TMPRSS2: Transmembrane protease serine 2 (TMPRSS2, Homo sapiens, UniProt O15393)
Chain of UniProt O15393 (whole entry, looked up): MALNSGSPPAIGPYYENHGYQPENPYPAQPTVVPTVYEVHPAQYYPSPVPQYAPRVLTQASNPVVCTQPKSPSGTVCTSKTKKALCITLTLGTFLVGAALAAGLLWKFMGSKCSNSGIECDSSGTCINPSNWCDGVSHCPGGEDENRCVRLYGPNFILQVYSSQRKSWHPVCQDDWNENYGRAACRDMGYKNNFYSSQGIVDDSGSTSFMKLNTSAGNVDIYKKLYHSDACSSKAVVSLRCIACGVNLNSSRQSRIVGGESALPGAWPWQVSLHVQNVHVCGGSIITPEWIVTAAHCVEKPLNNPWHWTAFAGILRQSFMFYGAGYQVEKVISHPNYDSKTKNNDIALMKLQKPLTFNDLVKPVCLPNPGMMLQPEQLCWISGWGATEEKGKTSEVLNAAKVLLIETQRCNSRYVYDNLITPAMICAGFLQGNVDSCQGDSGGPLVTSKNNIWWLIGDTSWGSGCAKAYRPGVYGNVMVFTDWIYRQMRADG
Chain of UniProt P21554 (whole entry, looked up): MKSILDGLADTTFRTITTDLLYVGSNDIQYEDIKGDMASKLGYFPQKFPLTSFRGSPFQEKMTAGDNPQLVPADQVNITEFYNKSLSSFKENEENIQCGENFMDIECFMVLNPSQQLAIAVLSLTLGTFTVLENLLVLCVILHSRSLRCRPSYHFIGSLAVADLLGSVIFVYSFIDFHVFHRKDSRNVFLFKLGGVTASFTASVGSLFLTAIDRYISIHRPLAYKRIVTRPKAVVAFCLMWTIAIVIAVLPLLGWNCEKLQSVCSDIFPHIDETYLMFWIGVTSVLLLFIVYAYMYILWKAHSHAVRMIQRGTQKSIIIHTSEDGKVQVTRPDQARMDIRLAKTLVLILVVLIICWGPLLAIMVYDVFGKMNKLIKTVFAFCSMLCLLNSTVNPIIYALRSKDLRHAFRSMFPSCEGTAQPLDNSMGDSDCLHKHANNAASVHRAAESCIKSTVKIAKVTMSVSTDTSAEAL
Chain of UniProt P25101 (whole entry, looked up): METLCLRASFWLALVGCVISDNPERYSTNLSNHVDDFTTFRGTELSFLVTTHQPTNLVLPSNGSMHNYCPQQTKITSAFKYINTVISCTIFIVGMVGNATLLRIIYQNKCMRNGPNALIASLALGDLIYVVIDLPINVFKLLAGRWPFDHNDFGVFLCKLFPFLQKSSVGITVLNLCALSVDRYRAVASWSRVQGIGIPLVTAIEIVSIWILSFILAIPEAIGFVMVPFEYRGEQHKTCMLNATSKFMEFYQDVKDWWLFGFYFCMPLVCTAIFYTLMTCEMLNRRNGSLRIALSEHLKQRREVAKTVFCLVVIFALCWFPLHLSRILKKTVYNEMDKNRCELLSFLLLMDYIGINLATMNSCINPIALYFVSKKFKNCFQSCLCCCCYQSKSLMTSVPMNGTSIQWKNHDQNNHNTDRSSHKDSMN
Chain of UniProt Q13554 (whole entry, looked up): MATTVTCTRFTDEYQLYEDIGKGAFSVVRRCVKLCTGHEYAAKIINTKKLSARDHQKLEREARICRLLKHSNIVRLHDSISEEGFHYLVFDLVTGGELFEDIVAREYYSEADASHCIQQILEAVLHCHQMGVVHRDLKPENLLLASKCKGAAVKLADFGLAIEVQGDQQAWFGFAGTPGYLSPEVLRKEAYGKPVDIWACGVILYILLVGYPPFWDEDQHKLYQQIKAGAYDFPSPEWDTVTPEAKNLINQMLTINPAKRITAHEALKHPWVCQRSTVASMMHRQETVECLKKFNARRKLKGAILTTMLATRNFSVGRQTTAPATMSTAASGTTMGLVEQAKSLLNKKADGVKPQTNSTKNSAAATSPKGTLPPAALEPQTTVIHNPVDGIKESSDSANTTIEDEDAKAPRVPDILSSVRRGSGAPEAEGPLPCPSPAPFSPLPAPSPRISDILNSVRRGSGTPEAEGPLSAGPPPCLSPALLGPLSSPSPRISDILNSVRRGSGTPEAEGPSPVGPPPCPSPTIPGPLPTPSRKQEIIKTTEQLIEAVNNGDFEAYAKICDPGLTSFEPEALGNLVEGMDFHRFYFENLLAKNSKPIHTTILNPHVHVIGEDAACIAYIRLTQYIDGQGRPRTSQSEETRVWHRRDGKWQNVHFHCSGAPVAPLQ
Chain of UniProt Q9Y6R4 (whole entry, looked up): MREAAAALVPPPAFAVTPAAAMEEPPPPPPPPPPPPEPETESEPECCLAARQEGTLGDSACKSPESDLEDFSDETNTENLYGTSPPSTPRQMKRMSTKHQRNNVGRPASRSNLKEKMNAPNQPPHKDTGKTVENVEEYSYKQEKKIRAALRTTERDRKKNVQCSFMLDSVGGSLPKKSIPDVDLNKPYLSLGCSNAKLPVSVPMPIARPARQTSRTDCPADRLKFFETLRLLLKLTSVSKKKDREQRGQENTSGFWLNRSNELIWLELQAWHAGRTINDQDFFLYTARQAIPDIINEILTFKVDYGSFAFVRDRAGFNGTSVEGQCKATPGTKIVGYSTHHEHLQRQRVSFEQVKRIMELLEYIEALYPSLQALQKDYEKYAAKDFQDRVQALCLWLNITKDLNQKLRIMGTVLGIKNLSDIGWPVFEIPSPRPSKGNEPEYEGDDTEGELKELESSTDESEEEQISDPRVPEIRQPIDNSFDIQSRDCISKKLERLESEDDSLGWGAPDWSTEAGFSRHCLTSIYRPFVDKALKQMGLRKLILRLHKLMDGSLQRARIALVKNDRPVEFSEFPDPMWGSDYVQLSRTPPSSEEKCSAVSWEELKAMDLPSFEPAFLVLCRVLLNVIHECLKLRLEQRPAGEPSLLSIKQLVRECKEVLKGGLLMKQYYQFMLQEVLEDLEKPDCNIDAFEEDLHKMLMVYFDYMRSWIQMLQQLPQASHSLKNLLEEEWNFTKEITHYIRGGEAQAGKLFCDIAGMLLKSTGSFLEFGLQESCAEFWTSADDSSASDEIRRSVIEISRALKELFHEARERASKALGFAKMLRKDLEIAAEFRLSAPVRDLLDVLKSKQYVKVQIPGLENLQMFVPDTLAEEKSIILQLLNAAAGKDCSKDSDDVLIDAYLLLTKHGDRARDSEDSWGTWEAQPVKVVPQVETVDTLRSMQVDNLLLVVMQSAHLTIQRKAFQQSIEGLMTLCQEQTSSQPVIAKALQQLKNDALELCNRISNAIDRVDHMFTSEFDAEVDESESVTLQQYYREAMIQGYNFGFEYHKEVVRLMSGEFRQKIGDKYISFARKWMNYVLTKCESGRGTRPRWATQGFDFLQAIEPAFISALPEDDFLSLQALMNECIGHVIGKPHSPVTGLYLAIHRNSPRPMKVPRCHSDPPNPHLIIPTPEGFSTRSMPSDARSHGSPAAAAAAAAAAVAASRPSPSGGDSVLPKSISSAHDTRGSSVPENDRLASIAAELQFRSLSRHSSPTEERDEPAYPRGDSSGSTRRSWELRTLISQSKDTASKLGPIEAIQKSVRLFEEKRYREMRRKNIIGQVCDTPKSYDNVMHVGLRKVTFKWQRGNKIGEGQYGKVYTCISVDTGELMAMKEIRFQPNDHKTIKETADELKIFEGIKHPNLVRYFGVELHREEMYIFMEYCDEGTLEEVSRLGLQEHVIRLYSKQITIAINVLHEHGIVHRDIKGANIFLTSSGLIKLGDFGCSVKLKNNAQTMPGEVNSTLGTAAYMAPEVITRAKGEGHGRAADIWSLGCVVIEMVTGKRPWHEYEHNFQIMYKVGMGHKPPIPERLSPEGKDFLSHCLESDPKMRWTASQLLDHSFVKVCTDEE
Chain of UniProt P60651 (whole entry, looked up): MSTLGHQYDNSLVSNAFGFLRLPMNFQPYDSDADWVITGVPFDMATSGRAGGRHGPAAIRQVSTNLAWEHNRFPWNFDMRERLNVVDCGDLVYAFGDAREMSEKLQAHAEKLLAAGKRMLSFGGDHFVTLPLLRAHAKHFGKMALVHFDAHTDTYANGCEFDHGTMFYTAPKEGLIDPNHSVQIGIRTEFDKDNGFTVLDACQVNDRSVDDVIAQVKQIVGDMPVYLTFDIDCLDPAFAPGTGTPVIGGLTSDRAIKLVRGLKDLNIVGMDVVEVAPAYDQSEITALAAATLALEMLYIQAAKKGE
Chain of UniProt Q9H0K1 (whole entry, looked up): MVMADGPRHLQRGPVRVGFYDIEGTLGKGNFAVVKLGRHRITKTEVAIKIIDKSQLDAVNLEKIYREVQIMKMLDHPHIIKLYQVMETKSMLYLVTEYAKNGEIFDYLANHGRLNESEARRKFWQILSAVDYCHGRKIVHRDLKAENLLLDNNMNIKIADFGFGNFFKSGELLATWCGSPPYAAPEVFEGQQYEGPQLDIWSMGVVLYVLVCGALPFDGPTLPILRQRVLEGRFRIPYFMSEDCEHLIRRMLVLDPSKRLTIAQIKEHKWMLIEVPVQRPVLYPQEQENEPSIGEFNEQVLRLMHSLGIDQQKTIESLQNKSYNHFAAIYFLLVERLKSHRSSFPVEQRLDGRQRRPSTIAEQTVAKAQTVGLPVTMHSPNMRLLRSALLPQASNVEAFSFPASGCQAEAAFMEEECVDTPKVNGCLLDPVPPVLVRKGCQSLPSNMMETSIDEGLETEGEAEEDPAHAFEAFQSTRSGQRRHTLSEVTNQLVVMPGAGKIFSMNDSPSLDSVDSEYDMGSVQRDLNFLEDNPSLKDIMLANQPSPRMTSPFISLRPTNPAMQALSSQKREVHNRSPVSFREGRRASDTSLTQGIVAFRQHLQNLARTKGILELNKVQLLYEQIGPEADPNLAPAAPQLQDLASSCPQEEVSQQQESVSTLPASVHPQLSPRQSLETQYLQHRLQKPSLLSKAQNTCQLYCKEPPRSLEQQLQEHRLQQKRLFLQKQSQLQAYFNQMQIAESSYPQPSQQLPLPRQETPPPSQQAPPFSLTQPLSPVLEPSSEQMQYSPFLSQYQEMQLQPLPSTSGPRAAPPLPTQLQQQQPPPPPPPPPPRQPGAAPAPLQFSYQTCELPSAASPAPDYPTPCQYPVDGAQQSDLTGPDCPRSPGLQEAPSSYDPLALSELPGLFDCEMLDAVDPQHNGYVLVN

SMILES	target or system	assay	system	setting	measurement	result
N.N.[Cl][Pt][Cl]	P3HR-1	cell growth or viability, ATP luminescence	–	10 µM, 72 h	inhibition	89%
N=C(N)NCCCCN	speB (Escherichia coli, UniProt P60651)	enzyme activity, substrate, absorbance	–	pH 7.5	Km	718 µM
CCCn1c(O)nnc1SCC(=O)Nc1cc(Cl)ccc1Cl	PFF0160c E182D	enzyme activity, inhibitor, absorbance	–	–	IC50	3.69 µM
O=C(N=Nc1c(O)n(CCCCCF)c2ccccc12)c1ccccc1	CNR1 (Homo sapiens, UniProt P21554)	β-arrestin recruitment, agonist	HEK293	–	Emax	97.7%
CC(=O)N[C@@H](CCC(=O)O)C(=O)N[C@@H](Cc1ccccc1)C(=O)N[C@@H](CCCNC(=N)N)C(=O)c1nc2ccccc2s1	TMPRSS2	enzyme activity, inhibitor	–	1 nM	activity vs control	60%
C#Cc1n[nH]c2c(-c3cn([C@@H](C)c4ccccn4)c(=O)[nH]c3=O)cc(F)cc12	CAMK2B (Homo sapiens, UniProt Q13554)	enzyme activity, inhibitor	–	0.1 µM	inhibition	6.4%
Nc1ncc(-c2nc(N3CCOCC3)nc(N3CCOCC3)n2)c(C(F)F)n1	STK32C (Homo sapiens, UniProt Q86UX6)	binding, competition with immobilised ligand	–	10 µM	remaining binding	100%
Cc1nn(C)cc1-c1nc2c(N3CCN(Cc4ccc(Cl)cc4)CC3)c(Cl)cnc2[nH]1	Tyrosine-protein kinase ABL1, phosphorylated (ABL1, Homo sapiens, UniProt P00519, H396P)	binding, competition with immobilised ligand	–	1 µM	remaining binding	99%
N=C(N)NCCCCC(=O)N[C@@H](CCC(=O)O)C(=O)N[C@@H](Cc1ccccc1)C(=O)N[C@H](CCCNC(=N)N)C(=O)c1nc2ccccc2s1	TMPRSS2	enzyme activity, inhibitor	–	1 nM	activity vs control	31%
Cc1nc(Nc2ccc(C)c(Cl)c2)c2c(C)noc2n1	PFF0160c E182D	enzyme activity, inhibitor, absorbance	–	–	IC50	2.62 µM
CC(=O)N[C@@H](CCC(N)=O)C(=O)N[C@@H](Cc1ccncc1)C(=O)N[C@@H](CCCNC(=N)N)C(=O)c1nc2ccccc2s1	TMPRSS2	enzyme activity, inhibitor	–	1 nM	activity vs control	96%
CC[C@H](C)[C@H](NC(=O)[C@H](Cc1ccccc1)NC(=O)[C@H](CCC(=O)O)NC(=O)[C@H](CCCNC(=N)N)NC(=O)[C@H](C)NC(=O)[C@H](C)NC(=O)[C@H](CCC(N)=O)NC(=O)[C@H](CCC(=O)O)NC(=O)[C@H](CCC(=O)O)NC(=O)[C@H](CC(C)C)NC(=O)[C@H](Cc1ccc(O)cc1)NC(=O)[C@H](CO)NC(=O)[C@H](CO)NC(=O)[C@@H](NC(=O)[C@H](CC(=O)O)NC(=O)[C@H](CO)NC(=O)[C@@H](NC(=O)[C@H](Cc1ccccc1)NC(=O)[C@@H](NC(=O)CNC(=O)[C@H](CCC(=O)O)NC(=O)[C@H](C)NC(=O)CCc1c[nH]cn1)[C@@H](C)O)[C@@H](C)O)C(C)C)C(=O)N[C@@H](C)C(=O)N[C@@H](Cc1c[nH]c2ccccc12)C(=O)N[C@@H](CC(C)C)C(=O)N[C@H](C(=O)N[C@@H](CCCNC(=N)N)C(=O)NCC(=O)N[C@@H](CCCNC(=N)N)C(=O)N[C@@H](CCCCNC(=O)COCCOCCNC(=O)COCCOCCNC(=O)CC[C@H](NC(=O)CCCCCCCCCCCCCCCCC(=O)O)C(=O)O)C(=O)NCC(=O)NCC(=O)N[C@@H](CO)C(=O)N[C@@H](CCCCNc1c(NCCCCCN(O)C(=O)CCC(=O)NCCCCCN(O)C(=O)CCC(=O)NCCCCCN(O)C(C)=O)c(=O)c1=O)C(=O)O)C(C)C	–	–	rat, plasma	intravenous, 20 nmol/kg	MRT	10 h
N=C(N)NCCCCC(=O)N[C@@H](CCC(N)=O)C(=O)N[C@@H](Cc1ccc(OCc2ccccc2)cc1)C(=O)N[C@@H](CCCNC(=N)N)C(=O)c1nc2ccccc2s1	TMPRSS2	enzyme activity, inhibitor	–	1 nM	activity vs control	82%
COc1ncccc1-c1cnn2ccc(N3CCN(C(=O)OC(C)C)CC3)nc12	MAP3K4 (Homo sapiens, UniProt Q9Y6R4)	binding, competition with immobilised ligand	–	1 µM	remaining binding	73%
[2H]c1c([2H])c([C@]2([2H])CCCN2C(=O)C(C)(C)Oc2ccc3cn[nH]c3c2)c([2H])c([2H])c1C([2H])([2H])[2H]	SIK2 (Homo sapiens, UniProt Q9H0K1)	binding, competition with immobilised ligand	–	1 µM	remaining binding	97%
CN1C(=O)/C(=N\Nc2ncc(-c3cc4ccccc4oc3=O)s2)c2cc(Cl)ccc21	ACHE (Homo sapiens, UniProt P22303)	enzyme activity, inhibitor, Ellman	–	5 µM	inhibition	95.5%
CCN(CC)CCCC[C@H](NC(=O)[C@H](CC(C)C)NC(=O)[C@H](C)NC(=O)[C@H](Cc1ccccc1)NC(=O)c1ccc(C(C)(C)C)cc1)C(=O)N[C@@H](CO)C(=O)OC	EDNRA (Homo sapiens, UniProt P25101)	ligand displacement, radioligand	–	10 µM	remaining binding	112%
O=C(CCCOc1ccc(Cl)cc1)NC1CCOC1=O (stereo not drawn)	qscR (Pseudomonas aeruginosa, UniProt G3XD77)	reporter gene, agonist	–	–	Emax	86 to 88%

Repeated from above:
SMILES	target or system	assay	system	setting	measurement	result
CCCn1c(O)nnc1SCC(=O)Nc1cc(Cl)ccc1Cl	PFF0160c E182D	enzyme activity, inhibitor, absorbance	–	–	IC50	3.69 µM
O=C(N=Nc1c(O)n(CCCCCF)c2ccccc12)c1ccccc1	CNR1 (Homo sapiens, UniProt P21554)	β-arrestin recruitment, agonist	HEK293	–	Emax	97.7%
CC(=O)N[C@@H](CCC(=O)O)C(=O)N[C@@H](Cc1ccccc1)C(=O)N[C@@H](CCCNC(=N)N)C(=O)c1nc2ccccc2s1	TMPRSS2	enzyme activity, inhibitor	–	1 nM	activity vs control	60%
